# Results gathered from unrelated publications.
# Lines come from different studies, so protocols differ. “And” joins repeats or separate records; there may be more than shown. ± marks the error that the study gave.
Compound,test,system,conditions,scale,quantity,result
C=CC(=O)N1CCC(c2ccc(C(N)=O)c(-c3ccc(Oc4ccccc4)cc3)n2)CC1,,relapsed/refractory mantle cell lymphoma patients,"oral, dose not given, part, all doses, CTCAE v4.03",,treatment-related AE rate,40.6%
Cn1cnc2c(F)c(Nc3ccc(Br)cc3Cl)c(C(=O)NOCCO)cc21,,"human, plasma","oral, dose not given, first-order absorption",,peripheral volume of distribution,52.2 L
Cc1ccc(Sc2ccccc2N2CCNCC2)c(C)c1,measured: Thirst,healthy adult men,"oral, 10 mg single dose",,participants with TEAE,0%
O=C1c2ccncc2C(=O)c2c1[nH]c1ccccc21,,"Sprague-Dawley rat, male, lung","intravenous, 1 mg/kg, 24 h",,tissue concentration,0.013 ± 0.004 nmol/mg
N#Cc1ccc2c(c1)[C@H]1CCCN(C(=O)c3ccc4[nH]cnc4c3)[C@H]1C2,,human,"40 mg, end of trial",,mean ACTH level,5.9 pmol/L
C[C@@H](N)C1CCN(S(=O)(=O)c2cccc3cnccc23)CC1,,healthy volunteers,"150 mg, fed",,treatment-related TEAE incidence,30%
O=C(CCCN1CC=C(n2c(=O)[nH]c3ccccc32)CC1)c1ccc(F)cc1,,"male Hartley guinea pigs, anaesthetized","intravenous, 0.03 mg/kg group, baseline before infusion",,heart rate,241 ± 0.8 beats/min
CO[C@H]1C[C@@H]2CC[C@@H](C)[C@@](O)(O2)C(=O)C(=O)N2CCCC[C@H]2C(=O)O[C@H]([C@H](C)C[C@@H]2CC[C@@H](OC(=O)NCCOCCOCCOCCOCCOCCOCCOCCOCCC(=O)N3CCc4cc(Cn5nc(-c6ccc7oc(N)nc7c6)c6c(N)ncnc65)ccc4C3)[C@H](OC)C2)C[C@@H](O)[C@H](C)/C=C(\C)[C@@H](O)[C@@H](OC)C(=O)[C@H](C)C[C@H](C)/C=C/C=C/C=C/1C,,"human patients, plasma","intravenous, 1.6 mg, cycle 1 day 15, weekly dosing",,Tmax,1 h
COc1ccc2[nH]c([S+]([O-])Cc3ncc(C)c(OC)c3C)nc2c1 (centres unmarked),LC-MS/MS,"healthy Chinese, CYP2C19*3 AA, plasma","oral, 20 mg",,Cmax,884 ± 575 ng/mL
C=CC(=O)Nc1cc(Nc2nccc(-c3cn(C)c4ccccc34)n2)c(OC)cc1N(C)CCN(C)C,storage stability,human plasma,"10 d, -80 °C, HQC level",,recovery,94.8%
CC/C(=C(\c1ccccc1)c1ccc(OCCN(C)C)cc1)c1ccccc1,,"male Hartley guinea pigs, anaesthetized","intravenous, 30 mg/kg over 10 min, after infusion",,heart rate,192 ± 0.9 beats/min
C=CC(=O)Nc1cc(Nc2nccc(-c3cn(C)c4ccccc34)n2)c(OCC(F)(F)F)nc1N(C)CCN(C)C,rapid equilibrium dialysis,human plasma,"1 µg/mL, time not given",,recovery,87.9%
CNc1ccc(-c2nc3ccc(O)cc3s2)cc1 [carbon-11 labelled],ex vivo biodistribution,"APP/PS1 Alzheimer mice, caudate nucleus","intravenous, 30 min",,uptake,0.158 ± 0.09 SUV
O=C(Nc1cnccc1Cl)N1CCN(Cc2ccc3c(c2)OC(F)(F)O3)CC1,measured: Fatigue,healthy elderly humans,"100 mg once daily, 10 days",,volunteers with adverse event,33.3%
Cn1cncc1-c1c(F)cncc1NC(=O)c1c(N)nn2cc(F)cnc12,population PK model,"patients with solid tumours, plasma",oral,,Q/F,3.59 L/h
Cc1ccc(C(=O)N(CCCN)C(c2nc3snc(C)c3c(=O)n2Cc2ccccc2)C(C)C)cc1 (centres unmarked),,human patients,"intravenous, 4 mg/day",,grade ≥3 dysphagia patients,0%
C=CC(=O)NC1CCN(c2ncc3ncnc(Nc4ccc(Oc5ccc6c(c5)ncn6C)c(C)c4)c3n2)CC1,,healthy male humans,"oral, 240 mg",,participants with AE grade ≥3,0%
CS(=O)(=O)c1ccc([C@@H](O)[C@@H](CF)NC(=O)C(Cl)Cl)cc1,,"Arbor Acres chickens, plasma","oral, 20 mg/kg, with: quercetin 60 mg/kg pretreatment",,MRT(0-inf),3.78 ± 0.32 h
C[C@@H](c1nc(-c2ccc(C#N)cc2)cs1)[C@](O)(Cn1cncn1)c1cc(F)ccc1F,,"healthy human subjects, both sexes","oral, 200 mg, 13 days, study",,treatment-emergent adverse events,61.1%
COc1ncc(-c2nc3c(n2C(C)C)[C@H](c2ccc(Cl)cc2)N(c2cc(Cl)cn(C)c2=O)C3=O)c(OC)n1,"LC-MS/MS, noncompartmental","human, plasma","oral, 200 mg, C2D1, high-dose, geometric mean",,Cmax,1420 ng/mL
C=CC(=O)N(C)CCOc1c(N)ncnc1-c1cc(F)cc(NC(=O)c2ccc(C3CC3)cc2F)c1C,,human,"oral, 1.5 mg single dose",,Cmax,1.26 ng/mL
C[C@@H](Nc1cc(F)cc(F)c1)c1cc(C(=O)N(C)C)cc2c(=O)cc(N3CCOCC3)oc12,measured: drug-induced liver injury,patients with advanced solid tumours,"oral, dose not given, dose expansion phase I",,treatment-related serious adverse events,0%
C[C@@H](Oc1ccc(S(C)(=O)=O)cc1C(=O)N1C[C@@H]2C[C@]2(c2cc(C(F)(F)F)on2)C1)C(F)(F)F,,human,"oral, 25 mg",,incidence of Myalgia,16.7%
CCN1/C(=C/C(C)=O)Sc2ccc(F)cc21,,cynomolgus monkey,"oral, 10 mg/kg, 6 h",,PR interval,92 ± 3 ms
Cc1cc(NC2CCN(C(=O)OC3CCN(C(=O)/C=C/CN(C)C)C3)CC2)n2ncc(C(C)C)c2n1 (centres unmarked),"Phase I dose escalation CTCAE v4.0, measured: decreased appetite",patients with advanced solid tumours,"dose not given, TIW dosing grade 3 or higher",,patients with adverse event,0%
C[C@@H]1CCO[C@H]2Cn3cc(C(=O)NCc4ccc(F)cc4F)c(=O)c(O)c3C(=O)N12,"population PK, post-hoc","children, 10 to <14 kg, plasma","oral, 8 mg granules, steady state, geometric mean",,AUC(0-24),34700 ng·h/mL
O=C(COc1ccc(Cl)cc1)NC12CC(c3nnc([C@H]4C[C@@H](OC(F)(F)F)C4)o3)(C1)C2,,"humans, MAD","oral, dose not given, 14 days, all compound doses",,post lumbar puncture syndrome,2.9%
CCc1cc(C(=O)NC)c2nccc(N3CCc4c(cc(Cn5ccnc5)cc4-c4cn(C)nc4C(F)(F)F)C3=O)c2c1,,Sprague Dawley rat,"oral, 50 mg/kg once daily, 7 days",reference: vehicle,change in ALB,-2.2%
COc1ccnc(C[S+]([O-])c2nc3ccc(OC(F)F)cc3[nH]2)c1OC (centres unmarked),,"human, plasma","intravenous, dose not given, median",,"CL, body weight adjusted",1.67 mL/min/kg
COc1ccc2c(=O)n(C)c(-c3ccccc3)nc2c1,,"Sprague-Dawley rat, male, skeletal muscle/plasma","oral, 30 mg/kg, 0.5 h",reference: skeletal muscle over plasma,tissue/plasma ratio,0.29
CN1CCN(c2cccc3c2CCN(C(=O)/C=C/c2c(-n4cnnn4)ccc(Cl)c2F)[C@@H]3C(=O)Nc2ccc(C(=O)O)cc2)C(=O)C1,,healthy human subjects,"intravenous infusion, 25 mg/h, 2 h",,subjects with any adverse event,0%
Cc1ccc([C@@H]2O[C@H](CO)[C@@H](O)[C@H](O)[C@H]2O)cc1Cc1ccc(-c2ccc(F)cc2)s1,measured: inorganic phosphorus,Japanese type 2 diabetes patients,"400 mg, day 6, 24 h urine collection",reference: baseline,urinary phosphate excretion change,140 mg
O=C(N[C@H](Cc1c[nH]c2ccccc12)C(=O)Nc1ccncc1)c1ccc(-c2ccc(F)c(Cl)c2)cc1F,,"Swiss Webster mouse, female, plasma","oral, 50 mg/kg, 8 h, 20% HPβCD vehicle",,concentration,1680 nM
O=C(CCCCCCC(=O)Nc1ccc(CC[18F])cc1)NO,,"athymic nu/nu male mice, LNCaP xenograft, muscle","intravenous, 2 h",,tissue uptake,1.2 ± 0.6 %ID/g
CCCCc1oc2ccccc2c1C(=O)c1cc(I)c(OCCN(CC)CC)c(I)c1,,"male Hartley guinea pigs, anaesthetized","intravenous, 20 mg/kg group, baseline before infusion",,heart rate,231 ± 0.7 beats/min
NCCCCCCCNCc1ccc(CNC(=O)c2csc3nc[nH]c(=O)c23)cc1,haemolysis,human red blood cells,"1 h, 37 °C",,EC50,> 100 µM
CN(C(=O)n1cnc(-c2cccnc2)c1)[C@H]1CC[C@H](O)CC1,,"rat, cortex","oral, 10 mg/kg daily for 5 days, 4 h",,tissue concentration,34.3 ± 5.7 ng/g
C[C@@H]1CN(CC(=O)N2CC(C)(C)c3nc(CO)c(Cc4ccc(F)cc4)cc32)[C@@H](CN2CCOC[C@H]2C)CN1,,male cynomolgus monkey,"oral, 15 mg/kg",,oral bioavailability,19 ± 5%
O=S(=O)(O)Oc1cc(CCO)ccc1O,,human CSF,"concentration not given, mean",,CSF concentration,not detected
CCCCCCC#Cc1cncc(-c2nnc(SCc3ccc([N+](=O)[O-])o3)n2C)c1,,African green monkey cells,72 h,,CC50,33 ± 2.89 µM
Fc1ccc(Nc2c(-c3ccccn3)nc3ccccn23)cc1,cytotoxicity,"peritoneal macrophages, Swiss mouse",5 days,,CC50,31.6 µM
[18F]c1ccc(-c2ccc3c(c2)[nH]c2ccncc23)cn1,ex vivo biodistribution,"APP/PS1 Alzheimer mice, gut","intravenous, 30 min",,uptake,1.73 ± 0.685 SUV
CCc1c(-c2ccccc2)c(-c2ccccc2)nn1-c1ccccc1-c1cccc(OCC(=O)O)c1,,Sprague-Dawley rat,oral,,MRT(0-t),2.74 h and 2.97 h and 2.96 h
CC(C)NCC(O)COc1cccc2ccccc12 (centres unmarked),,"male Hartley guinea pigs, anaesthetized","intravenous, 1 mg/kg over 10 min, after infusion",,heart rate,188 ± 0.6 beats/min
O=C(O)CCC(=O)O.[2H]C([2H])([2H])Oc1cc(C)c2[nH]ccc2c1CN1CC[C@@H](C2CC2)C[C@H]1c1ccc(C(=O)O)cc1,,"human, plasma","125 mg twice daily, day 1, multiple ascending dose, geometric mean",,AUC(0-tau),14400 ng·h/mL
COc1ccc([C@@H](O)c2cc(-c3ncnc4cc(N5CCOCC5)ccc34)c(F)cc2Cl)nn1,,locally advanced rectal cancer patients,"250 mg, with: capecitabine and radiotherapy",,lymphopenia TEAE incidence,17%
COc1cc(C=CC(=O)O)ccc1OS(=O)(=O)O,,human CSF,"concentration not given, mean",,CSF concentration,not detected
Oc1ccc(/C=C/c2cc(O)cc(O)c2)cc1,,"rat, azoxymethane-injected, blood at sacrifice",100 mg/kg,,potassium,3.6 mEq/L and 3 mEq/L and 2.9 mEq/L
CN(C(=O)n1cnc(-c2ccc[n+]([O-])c2)c1)[C@H]1CC[C@H](O)CC1,,"rat, cerebellum","oral, 10 mg/kg daily for 5 days, 24 h",,tissue concentration,8.2 ± 0.3 ng/g
COc1ccnc(C(=O)NC(CO)C(=O)O)c1O (racemic),FOCUS PEARL groundwater modelling,soil,geometric mean input,,KOC,315 mL/g
C[C@H]1O[C@@H](O[C@H]2CC[C@@]3(C)[C@@H](CC[C@]4(C)[C@@H]3C=C[C@]35OC[C@@]6(CCC(C)(C)C[C@H]63)[C@@H](O)C[C@]54C)[C@]2(C)CO)[C@H](O)[C@@H](O[C@@H]2O[C@H](CO)[C@@H](O)[C@H](O)[C@H]2O)[C@H]1O,UHPLC-MS/MS,"mouse, plasma","oral, 50 mg/kg, 10 h",,plasma concentration,0 ng/mL
CCOc1c([C@H](C)n2nc(C)c3c(N)ncnc32)cc(Cl)c(F)c1[C@@H]1CNC(=O)C1,,"human, all cohorts, plasma","oral, 30 mg, day 15, geometric mean",,AUC(0-tau),21.1 µM·h
O=C1NCCc2nc(OCc3cccc(F)c3)ccc21,measured: skin color,Sprague-Dawley rat male,"oral, 100 mg/kg, 30 min",direction not given,Irwin test score,0
CC(Oc1ccc(O)cc1)C(=O)O (centres unmarked),,human CSF,"concentration not given, mean",,CSF concentration,not detected
COc1cccc(OC)c1-c1cc(C(=O)NC2(C(=O)O)C3CC4CC(C3)CC2C4)nn1-c1ccc(C(=O)N(C)CCCN(C)CCCN(C)C(=O)CN2CCN(CC(=O)[O-])CCN(CC(=O)[O-])CCN(CC(=O)[O-])CC2)cc1C(C)C.[177Lu+3] (centres unmarked),,mouse HT-29 xenograft,"24 h, biodistribution",reference: tumour over stomach,tumour-to-stomach ratio,201
Cc1cccc(C)c1OCC(=O)N[C@@H](Cc1ccccc1)[C@@H](O)C[C@H](Cc1ccccc1)NC(=O)[C@H](C(C)C)N1CCCNC1=O,ultracentrifugation,phosphate buffer with HPMCAS,"15 min, pH 6.5, 3% BSA",,amorphous solubility,73.1 ± 6.6 µg/mL

# A few entries again:
Compound,test,system,conditions,scale,quantity,result
O=C(CCCCCCC(=O)Nc1ccc(CC[18F])cc1)NO,,"athymic nu/nu male mice, LNCaP xenograft, muscle","intravenous, 2 h",,tissue uptake,1.2 ± 0.6 %ID/g
CCCCc1oc2ccccc2c1C(=O)c1cc(I)c(OCCN(CC)CC)c(I)c1,,"male Hartley guinea pigs, anaesthetized","intravenous, 20 mg/kg group, baseline before infusion",,heart rate,231 ± 0.7 beats/min
NCCCCCCCNCc1ccc(CNC(=O)c2csc3nc[nH]c(=O)c23)cc1,haemolysis,human red blood cells,"1 h, 37 °C",,EC50,> 100 µM
CN(C(=O)n1cnc(-c2cccnc2)c1)[C@H]1CC[C@H](O)CC1,,"rat, cortex","oral, 10 mg/kg daily for 5 days, 4 h",,tissue concentration,34.3 ± 5.7 ng/g
